Measurements gathered from unrelated publications.
A part holds a random share of what one study measured. “And” joins repeats or separate records; there may be more than shown.
Sequence of UniProt P06241 (whole entry, looked up): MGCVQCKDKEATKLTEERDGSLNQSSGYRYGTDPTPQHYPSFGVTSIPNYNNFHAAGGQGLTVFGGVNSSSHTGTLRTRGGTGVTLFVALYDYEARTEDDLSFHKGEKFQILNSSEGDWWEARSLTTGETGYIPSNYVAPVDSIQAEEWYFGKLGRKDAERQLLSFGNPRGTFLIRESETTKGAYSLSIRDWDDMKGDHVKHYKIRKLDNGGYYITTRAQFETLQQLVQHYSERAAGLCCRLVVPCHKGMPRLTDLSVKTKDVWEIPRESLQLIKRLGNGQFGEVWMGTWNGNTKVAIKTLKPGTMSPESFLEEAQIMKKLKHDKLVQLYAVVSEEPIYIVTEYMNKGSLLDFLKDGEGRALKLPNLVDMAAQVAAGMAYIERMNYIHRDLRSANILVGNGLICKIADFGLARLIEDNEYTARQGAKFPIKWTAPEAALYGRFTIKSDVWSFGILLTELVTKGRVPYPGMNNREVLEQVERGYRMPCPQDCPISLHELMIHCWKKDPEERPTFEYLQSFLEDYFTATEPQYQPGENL
Sequence of UniProt P09769 (whole entry, looked up): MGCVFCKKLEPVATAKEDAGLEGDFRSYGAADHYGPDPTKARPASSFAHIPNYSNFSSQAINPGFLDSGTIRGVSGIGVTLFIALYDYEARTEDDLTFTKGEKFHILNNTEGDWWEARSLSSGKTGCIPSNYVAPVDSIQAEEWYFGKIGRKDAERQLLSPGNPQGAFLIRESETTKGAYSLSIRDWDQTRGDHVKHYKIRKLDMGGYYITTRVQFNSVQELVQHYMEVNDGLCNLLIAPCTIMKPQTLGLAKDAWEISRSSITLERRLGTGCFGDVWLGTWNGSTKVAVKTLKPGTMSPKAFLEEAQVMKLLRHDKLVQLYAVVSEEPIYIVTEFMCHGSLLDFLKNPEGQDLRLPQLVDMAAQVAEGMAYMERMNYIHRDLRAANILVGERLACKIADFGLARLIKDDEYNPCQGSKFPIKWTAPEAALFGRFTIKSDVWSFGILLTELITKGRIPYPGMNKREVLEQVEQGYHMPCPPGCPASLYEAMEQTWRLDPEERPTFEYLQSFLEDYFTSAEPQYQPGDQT
Sequence of UniProt P16591 (whole entry, looked up): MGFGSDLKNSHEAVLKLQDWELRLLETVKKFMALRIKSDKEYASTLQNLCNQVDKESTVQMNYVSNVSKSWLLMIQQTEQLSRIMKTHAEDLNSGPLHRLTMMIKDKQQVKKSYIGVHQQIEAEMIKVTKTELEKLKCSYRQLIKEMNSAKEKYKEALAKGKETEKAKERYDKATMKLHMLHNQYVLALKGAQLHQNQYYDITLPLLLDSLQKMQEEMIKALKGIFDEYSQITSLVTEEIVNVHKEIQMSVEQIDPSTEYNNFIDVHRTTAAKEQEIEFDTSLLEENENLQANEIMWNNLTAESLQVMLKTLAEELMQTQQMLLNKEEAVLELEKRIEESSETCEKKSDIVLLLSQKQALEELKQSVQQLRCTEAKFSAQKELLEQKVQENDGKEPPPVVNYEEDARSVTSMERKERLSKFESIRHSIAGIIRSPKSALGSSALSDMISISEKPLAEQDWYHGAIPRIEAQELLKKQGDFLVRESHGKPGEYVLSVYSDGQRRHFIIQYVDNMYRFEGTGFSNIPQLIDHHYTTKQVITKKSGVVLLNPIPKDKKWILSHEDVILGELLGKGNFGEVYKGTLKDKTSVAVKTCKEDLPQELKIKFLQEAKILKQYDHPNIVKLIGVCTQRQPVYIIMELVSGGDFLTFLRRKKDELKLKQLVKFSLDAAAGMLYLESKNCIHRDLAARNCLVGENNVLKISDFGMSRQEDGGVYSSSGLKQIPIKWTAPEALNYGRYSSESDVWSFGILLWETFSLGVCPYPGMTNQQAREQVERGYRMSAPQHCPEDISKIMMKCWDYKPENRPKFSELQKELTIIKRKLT
Sequence of UniProt Q08881 (whole entry, looked up): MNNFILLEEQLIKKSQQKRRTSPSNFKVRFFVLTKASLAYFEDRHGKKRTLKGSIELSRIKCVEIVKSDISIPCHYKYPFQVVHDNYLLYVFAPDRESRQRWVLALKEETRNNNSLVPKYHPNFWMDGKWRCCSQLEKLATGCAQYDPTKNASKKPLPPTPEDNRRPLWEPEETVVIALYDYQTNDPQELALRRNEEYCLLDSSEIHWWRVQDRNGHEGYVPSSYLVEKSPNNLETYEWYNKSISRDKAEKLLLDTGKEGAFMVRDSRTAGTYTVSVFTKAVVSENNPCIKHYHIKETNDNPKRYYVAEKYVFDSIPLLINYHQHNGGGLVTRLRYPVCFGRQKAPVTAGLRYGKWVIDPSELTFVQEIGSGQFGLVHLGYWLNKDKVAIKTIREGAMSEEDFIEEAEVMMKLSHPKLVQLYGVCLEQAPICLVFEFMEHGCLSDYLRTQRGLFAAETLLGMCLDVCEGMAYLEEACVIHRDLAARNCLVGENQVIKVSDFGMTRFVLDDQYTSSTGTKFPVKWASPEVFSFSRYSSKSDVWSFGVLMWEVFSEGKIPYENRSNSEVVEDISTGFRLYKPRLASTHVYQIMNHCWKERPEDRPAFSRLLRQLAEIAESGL
Sequence of UniProt Q86Z02 (whole entry, looked up): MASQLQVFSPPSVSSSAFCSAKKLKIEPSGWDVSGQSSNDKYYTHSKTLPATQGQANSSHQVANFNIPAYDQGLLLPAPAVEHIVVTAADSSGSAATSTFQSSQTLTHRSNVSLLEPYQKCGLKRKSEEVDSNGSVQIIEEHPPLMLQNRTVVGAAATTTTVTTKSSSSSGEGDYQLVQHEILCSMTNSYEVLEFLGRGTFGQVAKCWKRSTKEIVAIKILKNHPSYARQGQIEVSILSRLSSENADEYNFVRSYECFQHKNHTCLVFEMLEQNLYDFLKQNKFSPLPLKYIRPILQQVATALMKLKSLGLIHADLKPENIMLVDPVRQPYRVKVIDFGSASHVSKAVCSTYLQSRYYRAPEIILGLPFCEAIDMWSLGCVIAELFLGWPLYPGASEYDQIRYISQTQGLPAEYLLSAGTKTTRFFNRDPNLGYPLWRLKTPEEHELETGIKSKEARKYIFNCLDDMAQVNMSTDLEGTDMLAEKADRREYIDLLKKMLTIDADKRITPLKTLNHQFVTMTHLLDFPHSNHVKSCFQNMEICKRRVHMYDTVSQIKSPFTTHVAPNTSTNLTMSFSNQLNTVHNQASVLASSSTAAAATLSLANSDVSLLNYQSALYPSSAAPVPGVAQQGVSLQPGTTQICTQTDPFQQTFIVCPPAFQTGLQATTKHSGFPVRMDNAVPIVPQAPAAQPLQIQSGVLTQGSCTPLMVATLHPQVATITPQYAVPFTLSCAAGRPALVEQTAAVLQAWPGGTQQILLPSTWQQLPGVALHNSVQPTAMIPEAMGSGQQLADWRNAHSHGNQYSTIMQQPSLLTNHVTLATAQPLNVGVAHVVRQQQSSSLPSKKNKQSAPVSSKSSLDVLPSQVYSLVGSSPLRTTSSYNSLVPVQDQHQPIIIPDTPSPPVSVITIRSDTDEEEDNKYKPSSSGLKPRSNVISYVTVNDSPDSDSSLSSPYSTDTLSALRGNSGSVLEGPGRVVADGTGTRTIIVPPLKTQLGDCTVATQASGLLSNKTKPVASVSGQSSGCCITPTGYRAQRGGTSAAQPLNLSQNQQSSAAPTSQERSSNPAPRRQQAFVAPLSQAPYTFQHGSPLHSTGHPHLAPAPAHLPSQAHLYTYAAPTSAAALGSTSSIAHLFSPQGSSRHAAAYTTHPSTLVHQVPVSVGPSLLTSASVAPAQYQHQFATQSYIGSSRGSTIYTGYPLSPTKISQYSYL
Sequence of UniProt P51817 (whole entry, looked up): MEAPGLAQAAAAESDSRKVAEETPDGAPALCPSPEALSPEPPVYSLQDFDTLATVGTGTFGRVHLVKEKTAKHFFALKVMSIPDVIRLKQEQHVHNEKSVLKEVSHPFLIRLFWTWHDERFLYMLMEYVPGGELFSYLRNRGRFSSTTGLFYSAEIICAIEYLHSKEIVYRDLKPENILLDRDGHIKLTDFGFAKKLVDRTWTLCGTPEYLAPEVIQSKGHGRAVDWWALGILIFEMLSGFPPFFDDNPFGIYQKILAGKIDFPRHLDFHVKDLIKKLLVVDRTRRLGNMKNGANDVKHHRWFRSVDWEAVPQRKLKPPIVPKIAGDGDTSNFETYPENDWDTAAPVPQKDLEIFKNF
Sequence of UniProt Q00526 (whole entry, looked up): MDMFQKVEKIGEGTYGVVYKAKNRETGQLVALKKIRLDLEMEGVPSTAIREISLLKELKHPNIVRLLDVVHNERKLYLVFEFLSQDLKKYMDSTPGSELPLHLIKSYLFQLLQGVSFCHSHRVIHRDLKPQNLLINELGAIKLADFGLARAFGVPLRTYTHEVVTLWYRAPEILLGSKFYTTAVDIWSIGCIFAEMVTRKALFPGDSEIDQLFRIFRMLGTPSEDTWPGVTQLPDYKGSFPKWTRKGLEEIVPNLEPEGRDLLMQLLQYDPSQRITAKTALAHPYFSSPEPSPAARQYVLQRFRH

Series 1
Organism: Plasmodium berghei
Action: inhibitor
Cell line: Huh-7
Strain: GFP-expressing sporozoites, liver stage
Concentration: 10 µM
Time: 24 h
Relative to: untreated control
Quantity: infection rate
COc1ccc2c(c1)[C@]13CCCC[C@@H]1[C@H](C2)N(C)CC3: 104%
CN1C[C@H](C(=O)N[C@]2(C)O[C@@]3(O)[C@@H]4CCCN4C(=O)[C@H](Cc4ccccc4)N3C2=O)C=C2c3cccc4[nH]cc(c34)C[C@H]21: 52.3%
C[C@@H](CO)NC(=O)[C@@H]1C=C2c3cccc4[nH]cc(c34)C[C@H]2N(C)C1: 98.4%

Series 2
Cell line: mouse MPNST tumor cells
Method: high-content immunofluorescence imaging
Refers to: nuclear SOX9
Concentration: 10 µM
Time: 12 h
Notes: mean of 2 replicates
Relative to: DMSO control
Direction: higher = more nuclear SOX9
Quantity: nuclear SOX9 intensity
COc1ccc2c3c([nH]c2c1)[C@H](CC(C)C)N1C(=O)[C@H](CCC(=O)OC(C)(C)C)NC(=O)[C@@H]1C3: 149 % of DMSO
CN(C)[C@@H]1C(=O)C(C(N)=O)=C(O)[C@@]2(O)C(=O)C3=C(O)c4c(O)ccc(Cl)c4[C@@](C)(O)[C@H]3C[C@@H]12: 104 % of DMSO
O=C(O)c1nn(Cc2ccc(Cl)cc2Cl)c2ccccc12: 92.3 % of DMSO
Clc1ccc(OC[C@H]2CCN2)cn1: 102 % of DMSO
O[C@H]1[C@H](O)[C@@H](O)CN2CC[C@H](O)[C@H]12: 96.6 % of DMSO

Series 3
Compound: CC[C@@H](C)c1nc2cc(Nc3ccnc4ccc(S(=O)(=O)C(C)C)cc34)ccc2s1.Cl
Method: CCK-8
Quantity: survival
L929 RIPK3-/- reexpressing RIPK3 K51A/R69H; 12.5 µM, with: zVAD: 94.4% and 102% and 94.5% and 99.2% and 97.2%
L929 RIPK3-/- reexpressing RIPK3 K51A; 25 µM, with: zVAD: 87.2% and 63.3% and 109% and 65.5% and 111%
L929 RIPK3-/- reexpressing RIPK3 K51A/R69H; 6.25 µM: 99.7% and 89.4% and 98.2% and 92.6% and 91.3%
L929 RIPK3-/- reexpressing RIPK3 K51A/R69H; 1.563 µM, with: zVAD: 102% and 87.8% and 91.6% and 90.1%
L929 RIPK3-/- reexpressing RIPK3 K51A/R69H; 3.125 µM, with: zVAD: 104% and 90.4% and 91.1% and 102% and 93.5%

Series 4
SMILES: O=C1NC(=O)c2c1c1c3ccccc3n3c1c1c2c2ccccc2n1[C@H]1CC[C@@H]3O1
Read-out: enzyme activity
Action: inhibitor
Concentration: 0.5 µM
Relative to: control
Quantity: remaining activity
Proto-oncogene tyrosine-protein kinase Src (SRC, Homo sapiens, UniProt P12931): 69.5%
Tyrosine-protein kinase Fgr (FGR, Homo sapiens, UniProt P09769): 30.9%
Serine/threonine-protein kinase TAO3 (TAOK3, Homo sapiens, UniProt Q9H2K8): 24.5%
Homeodomain-interacting protein kinase 1 (HIPK1, Homo sapiens, UniProt Q86Z02): 93.6%
cAMP-dependent protein kinase catalytic subunit PRKX (PRKX, Homo sapiens, UniProt P51817): 17.5%
Tyrosine-protein kinase ITK/TSK (ITK, Homo sapiens, UniProt Q08881): 8.29%
Tyrosine-protein kinase Fyn (FYN, Homo sapiens, UniProt P06241): 59.9%
Tyrosine-protein kinase Fer (FER, Homo sapiens, UniProt P16591): 5.39%
Cyclin-dependent kinase 3, with cyclin E (CDK3, Homo sapiens, UniProt Q00526): 71.5%
Serine/threonine-protein kinase Nek11 (NEK11, Homo sapiens, UniProt Q8NG66): 60.6%

For quick reference, copied from above (series 4):
Tyrosine-protein kinase Fer (FER, Homo sapiens, UniProt P16591): 5.39%
Tyrosine-protein kinase Fyn (FYN, Homo sapiens, UniProt P06241): 59.9%
